Published values pooled from the literature.
Every numbered part comes from another study and shows a few of its results, in no order. Changes are numbered by the printed parent chain.

Set 1 — technique: RNA Bind-n-Seq; form: RNA; sample: in vitro; concentration: 1 µM; notes: whole 134-nt RNA, ends assumed; with: 150 mM KCl; reference: input library; direction: higher = stronger binding
Target: Ras GTPase-activating protein-binding protein 1, C-terminal RGG region (G3BP1, Homo sapiens, UniProt Q13283)
Chain of UniProt Q13283 (whole entry, looked up): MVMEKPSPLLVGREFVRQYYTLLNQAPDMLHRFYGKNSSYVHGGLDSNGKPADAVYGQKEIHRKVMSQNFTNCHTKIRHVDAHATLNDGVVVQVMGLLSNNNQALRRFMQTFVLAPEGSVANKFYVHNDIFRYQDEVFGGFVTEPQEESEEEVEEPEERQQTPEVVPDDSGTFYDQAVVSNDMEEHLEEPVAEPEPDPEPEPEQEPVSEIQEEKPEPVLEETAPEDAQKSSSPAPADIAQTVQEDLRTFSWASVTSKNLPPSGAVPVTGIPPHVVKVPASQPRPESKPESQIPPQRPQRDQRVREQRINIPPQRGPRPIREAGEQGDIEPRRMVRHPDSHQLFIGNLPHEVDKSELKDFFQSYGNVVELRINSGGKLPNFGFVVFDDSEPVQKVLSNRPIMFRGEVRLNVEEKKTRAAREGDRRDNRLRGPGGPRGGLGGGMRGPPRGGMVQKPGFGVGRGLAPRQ
| Strand | log2 enrichment |
| --- | --- |
| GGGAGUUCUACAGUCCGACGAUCUCCUGUGCUACACAUCGUAUGUACCGAAUCGGGAAAAAAGGGGAAAAAAGGGAAAAAAGGAAAGUAUUAUGUUACGCCGUUCGGAUCUGCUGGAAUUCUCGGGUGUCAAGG | -1.21 |
| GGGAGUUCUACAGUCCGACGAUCUCCUCAAGUCCUGUGCUACACAUCGUAUGUACCGAAUCGGGUGGGUGGGUGGAAAGUAUUAUGUUACGCCGUUCGGAUCUGCACUUCCAGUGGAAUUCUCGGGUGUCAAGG | 1.87 |
| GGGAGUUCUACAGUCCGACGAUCGCAGGAAGUAAAAACAAGUGGAAAUGCUUCGGAUAGUGGCAGGGGUGGGGGUUGCUAAGGAAAGGGUGGGAUGGGAGUGGGUAAAGAGUUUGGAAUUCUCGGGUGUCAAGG | 1.68 |
| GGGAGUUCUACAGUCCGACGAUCAGUCCUGUGCUACACAUCGUAUGUACCGAAUCGGAAAAAAAGGUUUGGUUUUUUUGGAAAGUAUUAUGUUACGCCGUUCGGAUCUGCACUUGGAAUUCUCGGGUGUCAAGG | -2.11 |
| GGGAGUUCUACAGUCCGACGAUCACCAUGCAGGUGGGCAUCUUUGGGAAGUGGGGCAAGGGGGGGAUAGGGAGGGGGGUAACACUUUGGGAACAGGUGGUCCCAGGUCGUUGCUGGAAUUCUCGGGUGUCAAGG | 3.06 |
| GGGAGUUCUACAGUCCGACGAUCCCUGUGCUACACAUCGUAUGUACCGAAUCGGGCCCCCCCGGGCCCCCCCGGGCCCCCCCGGAAAGUAUUAUGUUACGCCGUUCGGAUCUGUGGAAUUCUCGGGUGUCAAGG | -1.52 |
| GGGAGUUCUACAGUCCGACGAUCCUCAAGUCCUGUGCUACACAUCGUAUGUACCGAAUCGGCCGGGCCGGGCCGGGAAAGUAUUAUGUUACGCCGUUCGGAUCUGCACUUCCAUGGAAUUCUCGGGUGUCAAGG | -1.37 |
| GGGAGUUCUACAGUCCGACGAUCCAAGUCCUGUGCUACACAUCGUAUGUACCGAAUCGGGAGGGUUUUUGGGUUUGGGAAAGUAUUAUGUUACGCCGUUCGGAUCUGCACUUCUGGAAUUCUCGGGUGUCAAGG | 0.583 |
| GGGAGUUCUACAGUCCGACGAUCAAGUCCUGUGCUACACAUCGUAUGUACCGAAUCGGGAGGGAAAAAAAGGGUUUGGGAAAGUAUUAUGUUACGCCGUUCGGAUCUGCACUUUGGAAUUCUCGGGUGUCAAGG | 0.64 |
| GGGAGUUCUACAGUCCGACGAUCAAAAUUUCCAGUACCUUUGUCACAAUCCUAACACAUUAUCGGGAGCAGUGUCUUCCAUAAUGUAUAAAGAACAAGGUAGUUUUUACCUACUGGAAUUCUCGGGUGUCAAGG | -1.3 |

Set 2 — target: CCNB2, cyclin fold, Cln2 fusion (human); technique: yeast growth competition, sequencing; sample: yeast; notes: weak parent motif; reference: not given; direction: higher = stronger binding
Parent: WEE1 docking peptide (human); HKTFRKLRLFDTP
| Variant | normalised enrichment score |
| --- | --- |
| NKTFRKLRLFDTP [H1N] | 0.716 |
| HKTFRKLRLFDTK [P13K] | 0.103 |
| HFTFRKLRLFDTP [K2F] | -0.236 |
| HKTFRKLRLFDIP [T12I] | 1.02 |
| HKTFRKLRKFDTP [L9K] | 0.874 |
| HKTNRKLRLFDTP [F4N] | 0.261 |
| HKTFRLLRLFDTP [K6L] | 0.00213 |
| HKTFRILRLFDTP [K6I] | 0.493 |
| HKCFRKLRLFDTP [T3C] | 0.258 |
| HKTPRKLRLFDTP [F4P] | 0.509 |
| HKTFRQLRLFDTP [K6Q] | 0.477 |
| HKTVRKLRLFDTP [F4V] | 0.102 |
| HKTFRKWRLFDTP [L7W] | 1.13 |
| HKTFRKLRLDDTP [F10D] | 0.0871 |

Set 3 — technique: protein binding microarray; form: double-stranded DNA, one strand shown; sample: in vitro; concentration: not given; reference: not given; direction: higher = stronger binding
Target: Histone acetyltransferase KAT6A, winged helix 2, GST fusion (KAT6A, Homo sapiens, UniProt Q92794, residues 85-181)
Notes: 8-mer, flanks averaged, mean of 2 arrays, mostly near background
Residues (chain): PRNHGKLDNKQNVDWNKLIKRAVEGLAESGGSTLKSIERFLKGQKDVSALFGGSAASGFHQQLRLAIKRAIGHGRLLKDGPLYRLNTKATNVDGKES
| Strand | E-score |
| --- | --- |
| CAAACACG | -0.035 |
| AGTCGGTA | -0.0183 |
| AAGGGGTG | -0.119 |
| CACATGCC | 0.082 |
| CCACCTCC | -0.0568 |
| CCTAAGCG | -0.148 |
| AGATCCTC | -0.143 |
| AATGGTCC | -0.0345 |
| AGAACGGA | 0.00549 |
| ACAGGTCT | -0.182 |
| GAATACGA | 0.0731 |
| AAAAACGT | -0.115 |
| ATCGGGTA | -0.0948 |
| AAAAGATT | 0.0312 |
| ATACCGTC | -0.0589 |
| CGAGCAAC | 0.0755 |
| ACTTGCTG | 0.0927 |
| CTGCCGCC | 0.263 |
| AAATTACT | -0.0155 |
| TCCTCTAA | -0.155 |
| GCGCACGC | 0.122 |
| ATGCTCCG | -0.00183 |
| AACGGGAA | 0.027 |
| CAGGCAAC | 0.104 |
| CACGTTCA | -0.113 |

Set 4 — technique: DHFR PCA, deep sequencing; sample: yeast; with: (+)-ABA 58 µM; reference: wild-type fitted maximum; direction: higher = stronger binding
Target: ABI1, truncated, D143A, DHFR fusion (Arabidopsis thaliana)
Notes: methotrexate growth selection, single substitutions
Parent: PYL1, truncated, DHFR fusion (Arabidopsis thaliana); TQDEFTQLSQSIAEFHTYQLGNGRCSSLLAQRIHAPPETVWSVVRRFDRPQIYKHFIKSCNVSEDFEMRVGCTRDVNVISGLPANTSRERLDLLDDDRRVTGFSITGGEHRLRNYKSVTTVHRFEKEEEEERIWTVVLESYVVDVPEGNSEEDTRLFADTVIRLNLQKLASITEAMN; partner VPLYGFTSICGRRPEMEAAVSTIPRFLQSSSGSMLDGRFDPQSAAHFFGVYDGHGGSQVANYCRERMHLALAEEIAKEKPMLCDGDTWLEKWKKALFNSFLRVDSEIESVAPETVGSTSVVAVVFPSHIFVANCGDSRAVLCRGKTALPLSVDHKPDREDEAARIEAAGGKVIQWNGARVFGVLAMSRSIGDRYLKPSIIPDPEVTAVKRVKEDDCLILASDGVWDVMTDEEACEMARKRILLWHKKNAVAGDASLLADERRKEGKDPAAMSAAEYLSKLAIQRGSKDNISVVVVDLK
| Variant | relative binding score [%] |
| --- | --- |
| P36V | 54.8 |
| V100L | 67.4 |
| N114T | 17.6 |
| V136E | 22.8 |
| H16Y | 4.55 |
| R74Y | -3.92 |
| V142H | 71.2 |
| E129D | 95.6 |
| V76E | -7.27 |
| K126T | 106 |
| R90H | 65.4 |
| L166P | 32.1 |
| H16C | -18.2 |
| E67F | 70.6 |
| E14S | 65.6 |
| S150E | 49.6 |

A few entries again (set 3):
| Strand | E-score |
| --- | --- |
| AGAACGGA | 0.00549 |
| ACAGGTCT | -0.182 |
| GAATACGA | 0.0731 |
| AAAAACGT | -0.115 |
| ATCGGGTA | -0.0948 |
| AAAAGATT | 0.0312 |
| ATACCGTC | -0.0589 |
| CGAGCAAC | 0.0755 |
| ACTTGCTG | 0.0927 |
| CTGCCGCC | 0.263 |
| AAATTACT | -0.0155 |
